# Measurements from different studies.
# Parts stem from different laboratories: compare values within a part only. “And” joins repeats or separate records; there may be more than shown.

# Block 1
# SMILES: CC(=O)NC/C(=C\F)COc1cccc(Cn2c(=S)[nH]c(=O)c3[nH]cnc32)c1
# Target: Myeloperoxidase (MPO, Homo sapiens, UniProt P05164)
# UniProt P05164, sequence (whole entry, looked up): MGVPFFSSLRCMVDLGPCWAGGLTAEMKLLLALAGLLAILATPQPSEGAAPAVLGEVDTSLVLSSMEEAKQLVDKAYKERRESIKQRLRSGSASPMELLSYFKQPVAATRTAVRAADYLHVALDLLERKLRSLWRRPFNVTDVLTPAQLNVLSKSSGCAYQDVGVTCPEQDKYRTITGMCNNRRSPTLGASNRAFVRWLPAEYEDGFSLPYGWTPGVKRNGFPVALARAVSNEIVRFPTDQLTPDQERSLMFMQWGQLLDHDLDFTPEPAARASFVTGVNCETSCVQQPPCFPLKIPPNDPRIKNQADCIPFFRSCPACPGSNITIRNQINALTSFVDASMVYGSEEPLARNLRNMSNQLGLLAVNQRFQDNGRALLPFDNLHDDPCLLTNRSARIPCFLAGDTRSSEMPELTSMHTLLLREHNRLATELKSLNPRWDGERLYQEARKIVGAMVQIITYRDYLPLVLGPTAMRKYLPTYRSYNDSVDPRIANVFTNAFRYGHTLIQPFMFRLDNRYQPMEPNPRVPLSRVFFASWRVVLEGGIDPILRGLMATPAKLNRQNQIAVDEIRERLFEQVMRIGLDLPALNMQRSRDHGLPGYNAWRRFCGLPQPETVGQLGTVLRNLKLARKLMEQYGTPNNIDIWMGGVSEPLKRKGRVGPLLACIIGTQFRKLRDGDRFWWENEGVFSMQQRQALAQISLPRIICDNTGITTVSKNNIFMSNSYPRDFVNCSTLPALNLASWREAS
# Observed: enzyme activity
# Action: inhibitor
# Technique: fluorescence
concentration,inhibition
3.333 µM,98.5% and 95.8% and 98.7%
200 pM,-6.94%
13.7 nM,14.1% and 4.63% and 9.44%
1.5 nM,-10.3% and -6.36% and -5.13%
41.2 nM,19.2% and 26% and 21.2%
4.6 nM,-6.15% and 0.524% and 1.52%

# Block 2
# Organism: Leishmania donovani
# Observed: parasite growth
# Technique: resazurin
# Notes: promastigote
SMILES,IC50 [µM]
Cc1ccc2nc3c(c(Nc4ccc(O)cc4)c2c1)CCC3,3.41
COc1ccc(Nc2c3c(nc4ccccc24)CCC3)cc1,3.34
Cc1ccc(Nc2c3c(nc4ccccc24)CCC3)cc1,5.49
COC(=O)c1cccc(Nc2c3c(nc4ccccc24)CCC3)c1,4.71
Clc1ccc(Nc2c3c(nc4ccccc24)CCC3)cc1,6.56
COC(=O)c1ccc(Nc2c3c(nc4ccccc24)CCC3)cc1,5.41
COc1cccc(Nc2c3c(nc4ccccc24)CCC3)c1,4.12
Fc1ccc(Nc2c3c(nc4ccccc24)CCC3)cc1,6.58

# Other studies, line by line
Structure (SMILES),target or system,assay,system,conditions,quantity,value
Cn1cc(-c2cccc(CN3CCC4(CC3)COc3c4ccc4c3CN([C@@H]3CCC(=O)NC3=O)C4=O)c2)cn1,,,FaSSIF,,solubility,175 µM
C=CCN1C(=O)C(O)(C(=O)O)Oc2cc(F)ccc21 (stereo not shown),Arabidopsis thaliana,root length,Col-0,"3.13 µg/mL, 7 days, seed germination, dark",inhibition,14.5%

# Repeated from above (block 2):
SMILES,IC50 [µM]
Cc1ccc2nc3c(c(Nc4ccc(O)cc4)c2c1)CCC3,3.41
